Measurements pooled from the literature.
Each line is one published result; not all experiments were run side by side. “And” joins repeats or separate records; there may be more than shown.
Target: BDNF/NT-3 growth factors receptor (NTRK2, Homo sapiens, UniProt Q16620)

`CC(C)=CC1OC(C)(C)C2C=C3C(=O)C(Cl)=CC(O)C3C3C(O)C4OC4C(=O)C132` (stereo not drawn) has a remaining binding of 54% (cell-free assay, competition with immobilised ligand; 10 µM).
`O=C(CN1CCN(C(=O)c2ccc(F)cc2)CC1)Nc1cccc(C(=O)Nc2ccc3[nH]ncc3c2)c1` gave an inhibition of 9.33% (enzyme activity, inhibitor, FRET; 1 µM).
`C=CC(=O)N1CCCC(n2c(=O)c3ncccc3n(Cc3ccc(Oc4ccccc4)cc3)c2=O)C1` (stereo not drawn) has a remaining binding of 78% (cell-free assay, competition with immobilised ligand; 1 µM).
`Cc1ccc(-c2c(/C=C(\C#N)C(=O)NC(C)C)n(CCCO)c3ncnc(N)c23)cc1` has a remaining binding of 99% (cell-free assay, competition with immobilised ligand; 1 µM).
The inhibition of `Cc1cc(C(=O)Nc2ccc3[nH]ncc3c2)ccc1NC(=O)Nc1cc(C(F)(F)F)ccc1F` is reported as 11.9% (enzyme activity, inhibitor, FRET; 1 µM).
`COc1cc(Nc2nccc(-c3cnn4nc(OC)ccc34)n2)cc(C(F)(F)F)c1` gave a remaining binding of 67% (binding, competition with immobilised ligand; 1 µM).
`COc1c(OCCCN2CCOCC2)ccc2c1N=C(NC(=O)c1cnc(N)nc1)N1CCN=C21` has a remaining activity of 134% (kinase activity, inhibitor; 1 µM; baseline: untreated control).
`COCC12C(=O)NC3C4(C(OC)CC1O)C1CC5(O)C(OC)C(O)C(OC(C)=O)(C1C5OC(=O)c1ccccc1)C3(O)C(OC)C24` (stereo not drawn) has a remaining activity of 93% and 94% (kinase activity, inhibitor, ProQinase kinase profiling; 25 µM; baseline: control).
`COc1cc(NC(=O)Nc2cc(C(F)(F)F)ccc2F)ccc1C(=O)Nc1ccc2[nH]ncc2c1` has an inhibition of 19.7% (enzyme activity, inhibitor, FRET; 1 µM).
`O=C(Cc1ccc(OCc2ccccc2)cc1)NC1(C(=O)O)CCN(C(=O)c2ccc(-c3cccc(Cl)c3)cc2)CC1`: “activity vs control” 128% (enzyme activity, inhibitor; 10 µM).
`COc1c(Cl)cccc1Nc1c(-c2ccncc2C#C[C@@]2(C)CCCN2C(=O)/C=C/CN(C)C)[nH]c2c1C(=O)NCC2` gave a remaining binding of 80% (cell-free assay, competition with immobilised ligand; 3 µM).
For `O=C=[N][Ru-4]123([n]4c5ccc(O)cc5c5c6c(c7cc(F)c[n+]1c7c54)C(=O)NC6=O)[S+]1CC[S+]2CC[S+]3CC1` (stereo not drawn), the remaining activity was 75% (enzyme activity; 100 nM, human enzyme, with: 10 µM ATP; baseline: untreated).
With `Cc1cccc(O[C@H]2CCC[C@@H](C(C)CNCc3ccncc3)C2)c1` (relative stereo) the inhibition was -6% (cell-free assay; 10 µM).
`CNC(=O)C1CCN(c2cc(C)c(F)cc2NC(=O)c2ccc(-c3cc(O)ccc3C)c(C)c2)CC1` has a remaining binding of 48% (binding, competition with immobilised ligand; 1 µM).
`CNC(=O)c1ccc(-c2cc(=O)c3ccc4[nH]c(C(F)(F)F)nc4c3o2)cc1` — result for antiapoptotic activity: “decreased” (agonist, MTT; concentration not given, with: staurosporine).

Some of these lines once more:
`CC(C)=CC1OC(C)(C)C2C=C3C(=O)C(Cl)=CC(O)C3C3C(O)C4OC4C(=O)C132` (stereo not drawn) has a remaining binding of 54% (cell-free assay, competition with immobilised ligand; 10 µM).
`O=C(CN1CCN(C(=O)c2ccc(F)cc2)CC1)Nc1cccc(C(=O)Nc2ccc3[nH]ncc3c2)c1` gave an inhibition of 9.33% (enzyme activity, inhibitor, FRET; 1 µM).
